# Measurements from different studies.
# Protocols differ between the studies behind these lines. Values joined by “and” are separate records of one study, mostly repeats; a detail may differ.
# HTR1A: 5-hydroxytryptamine receptor 1A (HTR1A, Homo sapiens, UniProt P08908)
# IKBKB: Inhibitor of nuclear factor kappa-B kinase subunit beta (IKBKB, Homo sapiens, UniProt O14920)
# DRD5: D(1B) dopamine receptor (DRD5, Homo sapiens, UniProt P21918)
# LRRC8C E6A part LRRC8A IL1 chimera: Volume-regulated anion channel subunit LRRC8C, part LRRC8A IL1 chimera (LRRC8C, Homo sapiens, UniProt Q8TDW0, E6A)
# HTR4: 5-hydroxytryptamine receptor 4 (HTR4, Homo sapiens, UniProt Q13639)
# Urease subunit alpha: Urease subunit alpha (Sporosarcina pasteurii, UniProt P41020)
target,test,test system,setting,inhibition,Structure (SMILES)
HTR1A,radioligand binding,,"concentration not given, added: [3H]8-OH-DPAT",65%,COc1cccc(OC[C@H]2CN(CCN3CCc4ccccc43)CCO2)c1
IKBKB,"kinase binding, KiNativ profiling, refers to: Lys1 peptide",PANC-1 lysate,5 µM,1.9%,Cn1cc(-c2cnc3ccc(NC(=O)Nc4ccc(F)c(Br)c4)cc3n2)cn1
rabbit P2X receptor,radioligand binding,,10 µM,31%,CCN(Cc1ccccc1C(F)(F)F)C(=O)C1CCN(S(=O)(=O)c2ccc3[nH]ncc3c2)CC1
"Substance-K receptor (TACR2, Homo sapiens, UniProt P21452)",,,10 µM,0.12%,CCN1/C(=C/C(C)=O)Sc2ccc(F)cc21
α2,binding,,10 µM,-20.3%,COc1c(C#N)ccnc1N1C2CCC1CN(C(=O)c1cccnc1-n1cccn1)C2
"5'-AMP-activated protein kinase catalytic subunit alpha-1, with beta1, gamma1 (PRKAA1, Homo sapiens, UniProt Q13131)","enzyme activity, inhibitor, Z'-LYTE",,10000 nM,68%,CN(C)C1CCN(CC#Cc2nn(C3CCCC3)c3nc(NCc4ccccc4)ncc23)C1 (stereo not drawn)
DRD5,radioligand binding,,"concentration not given, added: [3H]SCH23390",-6.4%,O=C(CN1CCO[C@@H](COc2cccnc2)C1)N1CCc2ccccc21
"Dual specificity mitogen-activated protein kinase kinase 5 (MAP2K5, Homo sapiens, UniProt Q13163)",kinase activity,,0.1 µM,0.1%,CC/C(=N\NC(=O)NCc1cccc(O)c1)c1ccc(O)c(C)c1O
IKBKB,"inhibitor, KinaseProfiler panel",,1 µM,-5%,CN1CC(Oc2cnc(C#N)cc2-c2ccn3nc(NC(=O)C4CC4)cc3c2)C1
"Bromodomain testis-specific protein, BD2 (BRDT, Homo sapiens, UniProt Q58F21)",,,1 µM,1.32%,COc1cc(-c2cc(C(C)=O)n3ccccc23)c(OC)cc1Cn1ccnc1
"Tyrosine-protein phosphatase non-receptor type 22 (PTPN22, Homo sapiens, UniProt Q9Y2R2)",enzyme activity,,"25 to 30 µM, phosphatase selectivity panel",no inhibition,O=C(NCCCNS(=O)(=O)c1ccc(OC(F)(F)F)cc1)C1=Cc2ccccc2S1(=O)=O
LRRC8C E6A part LRRC8A IL1 chimera,"ion current, inhibitor, whole-cell patch clamp",HCT LRRC8-/- cells,"3 µM, +100 mV",92.7% and 83.4% and 90.7% and 85.4% and 98% and 88.3%,COc1cc(C(=O)NS(=O)(=O)c2ccccc2C)ccc1Cc1cn(C)c2ccc(NC(=O)OC3CCCC3)cc12
HTR4,radioligand binding,,concentration not given,27.8%,Clc1cccc(OC[C@H]2CN(CCN3CCc4ccccc43)CCO2)c1
AKT1 and AKT3,"ATP probe binding, KiNativ, refers to: Lys1 site",HEK293T cell lysate,1 µM,-1.2%,Cc1cc(-c2ccnc3[nH]cc(F)c23)cc(F)c1[C@@]1(O)[C@H](C)CN(C(=O)CN)C[C@@H]1C
Urease subunit alpha,"enzyme activity, indophenol method",,500 µM,87%,Fc1ccc(/C=C/C=N/NC(=S)NCc2ccc(Br)cc2)cc1
"Thyrotropin-releasing hormone receptor (TRHR, Homo sapiens, UniProt P34981)",,,10 µM,-7.98%,CN(C(=O)n1cnc(-c2ccc[n+]([O-])c2)c1)C1CCCCC1
HTR1A,"radioligand binding, radioligand displacement",,"10 µM, mean of replicates",-15.6%,O=C(NO)c1ccc(CN2CCCCc3ccccc32)c(F)c1
DRD5,radioligand binding,,"concentration not given, added: [3H]SCH23390",31.8%,COc1ccc2c(c1)C(=O)N(CCCN1CCN(c3ccccc3OC)CC1)C2
"Mitogen-activated protein kinase 14 (MAPK14, Homo sapiens, UniProt Q16539)","enzyme activity, inhibitor, TR-FRET",,up to 30 µM,no inhibition,CCc1ccc(NC(=O)CSc2nc(-c3cccc(OC)c3)nc3c2Cc2c(CO)cnc(C)c2O3)cc1
HTR1A,radioligand binding,,"concentration not given, added: [3H]8-OH-DPAT",72.9%,O=C(CN1CCO[C@H](COc2cccc(Cl)c2)C1)N1CCc2ccccc21
"Cyclic GMP-AMP synthase (CGAS, Homo sapiens, UniProt Q8N884)","enzyme activity, inhibitor, pyrophosphatase-coupled",,"100 µM, 1.5 h, added: HT-DNA",93.7%,Cc1nn(-c2nc3c(F)cc(F)cc3s2)c(O)c1C(c1ccccc1C(=O)O)c1c(C)nn(-c2nc3c(F)cc(F)cc3s2)c1O
AKT1 and AKT3,"ATP probe binding, KiNativ, refers to: Lys2 site",HEK293T cell lysate,1 µM,1.7%,Cc1cc(-c2ccnc3[nH]cc(F)c23)cc(F)c1[C@@]1(O)[C@H](C)CN(C2CCS(=O)(=O)CC2)C[C@@H]1C
LRRC8C E6A part LRRC8A IL1 chimera,"ion current, inhibitor, whole-cell patch clamp",HCT LRRC8-/- cells,"3 µM, +100 mV",92.8% and 96.6% and 91.6% and 97%,O=C(Nc1cccc2c(=O)cc(-c3nnn[nH]3)oc12)c1ccc(OCCCCc2ccccc2)cc1
DRD5,radioligand binding,,"concentration not given, added: [3H]SCH23390",10.2%,Clc1cncc(OC[C@H]2CN(CCN3CCc4ccccc43)CCO2)c1
"Bromodomain testis-specific protein, BD1 (BRDT, Homo sapiens, UniProt Q58F21)","binding, BROMOscan binding",,100 nM,93%,Cc1cc2c(cc1N1C(=O)c3cccc4c(CCCO)ccc(c34)C1=O)n(C)c(=O)n2C (racemic)
"Equilibrative nucleoside transporter 4 (SLC29A4, Homo sapiens, UniProt Q7RTT9)",transport,"MDCK-II, transfected","100 µM, added: MPP+ 10 µM",-2.91%,C[C@@H]1CCO[C@H]2Cn3cc(C(=O)NCc4ccc(F)cc4F)c(=O)c(O)c3C(=O)N12
"Epidermal growth factor receptor (EGFR, Homo sapiens, UniProt P00533, L858R)","kinase activity, inhibitor",,100 µM,94%,CC(C)Cc1ccc(-c2nn(-c3ccc(S(C)(=O)=O)cc3)cc2/C=N/N=c2\[nH]c(-c3ccc([N+](=O)[O-])cc3)cs2)cc1
DRD5,radioligand binding,,"concentration not given, added: [3H]SCH23390",16.1%,Cc1ccnc(OC[C@H]2CN(CC(=O)N3CCc4ccccc43)CCO2)c1
Urease subunit alpha,"enzyme activity, indophenol method",,500 µM,78.6%,N#Cc1cccc(NC(=S)N/N=C/C=C/c2ccc(F)cc2)c1
"Alpha-glucosidase MAL12 (MAL12, Saccharomyces cerevisiae S288c, UniProt P53341)",inhibitor,,25 µM,9.9%,Oc1ccc(Cn2ccnc2)cc1
"5'-AMP-activated protein kinase catalytic subunit alpha-1 (PRKAA1, Homo sapiens, UniProt Q13131)","ATP probe binding, KiNativ profiling, refers to: ATP loop probe site",THP-1 cell lysate,0.01 mM,7.8%,CC[C@@H]1[C@H](F)C(=O)N[C@@H]1COc1nccc2cc(C(N)=O)c(OC)cc12
HTR4,radioligand binding,,concentration not given,4.4%,COc1cc2c(cc1OC)C(=O)N(CCCCN1CCN(c3ccccc3OC)CC1)C2
"Dual specificity mitogen-activated protein kinase kinase 1 (MAP2K1, Homo sapiens, UniProt Q02750)","target engagement, competitive chemoproteomics",human PBMCs,0.01 µM,-5.7%,COc1ccc(F)cc1C(=O)NCc1ccc(-c2nn([C@@H](C)C(F)(F)F)c(N)c2C(N)=O)cc1

# Some of these lines once more:
target,test,test system,setting,inhibition,Structure (SMILES)
"Bromodomain testis-specific protein, BD1 (BRDT, Homo sapiens, UniProt Q58F21)","binding, BROMOscan binding",,100 nM,93%,Cc1cc2c(cc1N1C(=O)c3cccc4c(CCCO)ccc(c34)C1=O)n(C)c(=O)n2C (racemic)
"5'-AMP-activated protein kinase catalytic subunit alpha-1, with beta1, gamma1 (PRKAA1, Homo sapiens, UniProt Q13131)","enzyme activity, inhibitor, Z'-LYTE",,10000 nM,68%,CN(C)C1CCN(CC#Cc2nn(C3CCCC3)c3nc(NCc4ccccc4)ncc23)C1 (stereo not drawn)
"Cyclic GMP-AMP synthase (CGAS, Homo sapiens, UniProt Q8N884)","enzyme activity, inhibitor, pyrophosphatase-coupled",,"100 µM, 1.5 h, added: HT-DNA",93.7%,Cc1nn(-c2nc3c(F)cc(F)cc3s2)c(O)c1C(c1ccccc1C(=O)O)c1c(C)nn(-c2nc3c(F)cc(F)cc3s2)c1O
DRD5,radioligand binding,,"concentration not given, added: [3H]SCH23390",16.1%,Cc1ccnc(OC[C@H]2CN(CC(=O)N3CCc4ccccc43)CCO2)c1
"Thyrotropin-releasing hormone receptor (TRHR, Homo sapiens, UniProt P34981)",,,10 µM,-7.98%,CN(C(=O)n1cnc(-c2ccc[n+]([O-])c2)c1)C1CCCCC1
"5'-AMP-activated protein kinase catalytic subunit alpha-1 (PRKAA1, Homo sapiens, UniProt Q13131)","ATP probe binding, KiNativ profiling, refers to: ATP loop probe site",THP-1 cell lysate,0.01 mM,7.8%,CC[C@@H]1[C@H](F)C(=O)N[C@@H]1COc1nccc2cc(C(N)=O)c(OC)cc12
